Experimental data from different studies.
Protocols differ between the studies behind these lines. Several values in a cell are separate wells, animals, samples, runs or records. ± gives the spread as reported.
Sequence of UniProt O43242 (whole entry, looked up): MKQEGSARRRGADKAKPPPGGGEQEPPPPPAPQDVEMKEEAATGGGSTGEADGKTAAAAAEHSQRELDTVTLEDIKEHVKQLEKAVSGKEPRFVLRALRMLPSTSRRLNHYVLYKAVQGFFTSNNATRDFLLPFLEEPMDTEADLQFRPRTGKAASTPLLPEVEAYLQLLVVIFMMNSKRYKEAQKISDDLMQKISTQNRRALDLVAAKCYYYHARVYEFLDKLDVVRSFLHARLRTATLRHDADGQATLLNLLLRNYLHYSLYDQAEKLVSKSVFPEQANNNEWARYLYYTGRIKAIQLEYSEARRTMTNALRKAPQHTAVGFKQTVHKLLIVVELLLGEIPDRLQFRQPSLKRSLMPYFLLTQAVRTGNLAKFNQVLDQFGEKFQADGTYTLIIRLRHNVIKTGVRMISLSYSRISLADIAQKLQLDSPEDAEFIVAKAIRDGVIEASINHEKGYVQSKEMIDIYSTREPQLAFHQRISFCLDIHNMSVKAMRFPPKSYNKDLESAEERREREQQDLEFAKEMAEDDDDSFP

| Compound | target or system | test | system | conditions | how to read | measurement | value |
| --- | --- | --- | --- | --- | --- | --- | --- |
| COc1ccc2c3c1O[C@H]1C(=O)CC[C@@]4(O)[C@@H](C2)N(C)CC[C@]314 |  |  | mouse, carrageenan-induced heat allodynia | ip, 1 mg/kg, 10 min before test, 3 h after 1% carrageenan intraplantar |  | paw withdrawal threshold | 48 ± 1.1 °C |
| CN[C@@H](C)Cc1ccccc1 |  | refers to: body temperature | wild-type mice | i.p., 3 mg/kg, added: MDMA 25 mg/kg | relative to: time point -5 | time to significant hyperthermia | 75 min |
| COC(=O)[C@H]1[C@H]2C[C@@H]3c4[nH]c5cc(OC)ccc5c4CCN3C[C@H]2C[C@@H](OC(=O)c2cc(OC)c(OC)c(OC)c2)[C@@H]1OC | Plasmodium falciparum |  | W2 |  |  | IC50 | 0.794 µM |
| CC(C)C[C@H](CN)CC(=O)O |  | visual analogue scale | healthy male subjects, capsaicin responders, capsaicin-treated skin | 150 mg | relative to: placebo | VAS pain difference | -13.2% |
| C[C@H]1CN(c2n[nH]c3nc(N[C@H]4CC[C@H](NS(=O)(=O)CCC(F)(F)F)CC4)ncc23)CCO1 | PSMD3 (Homo sapiens, UniProt O43242) | inhibitor, Kinobeads competition profiling |  | 0.16 µM | relative to: vehicle | relative abundance | 0.9 |
| CCN(CC)[C@@H]1CCc2c(F)ccc(O)c2C1 | Plasmodium falciparum |  | Dd2 |  |  | IC50 | 2 µM |
| C#CCN(C)[C@H](C)Cc1ccccc1 |  | passive avoidance retention | APP/PS1 mice | oral, 10 mg/kg, 672 h, 4 weeks treatment |  | step-through latency | 209 ± 57.8 s |
| CNC1(c2ccccc2Cl)CCCCC1=O (racemic) |  | forced swim test | CD-1 mice | intraperitoneal, 10 mg/kg, 24 h, added: saline pre-treatment | relative to: vehicle | immobility duration | decreased |
| COc1cc(CCN)ccc1O |  | binding, MIDAS equilibrium dialysis LC-MS | A2AR-BRIL thermostabilized | concentration not given | relative to: no-protein control | log2 fold change | 0.0891 |
| CNC(C)Cc1ccc2c(c1)OCO2 (centres unmarked) |  | refers to: body temperature | wild-type mice | i.p., 25 mg/kg, added: methamphetamine 3 mg/kg | relative to: time point -5 | time to significant hyperthermia | 30 min |
| C#CCN(C)[C@H](C)Cc1ccccc1 |  | footprint test | MPTP-induced Parkinson's disease mouse model | 10 mg/kg, trial 1 |  | corridor crossing time | 4.19 s and 4.53 s and 5.62 s and 6.18 s and 5.84 s and 6.88 s and 5.57 s and 6.24 s |

Excerpt of the above:
| Compound | target or system | test | system | conditions | how to read | measurement | value |
| --- | --- | --- | --- | --- | --- | --- | --- |
| COc1ccc2c3c1O[C@H]1C(=O)CC[C@@]4(O)[C@@H](C2)N(C)CC[C@]314 |  |  | mouse, carrageenan-induced heat allodynia | ip, 1 mg/kg, 10 min before test, 3 h after 1% carrageenan intraplantar |  | paw withdrawal threshold | 48 ± 1.1 °C |
